Experimental data gathered from unrelated publications.
Protocols differ between the studies behind these lines. Values joined by “and” are separate records of one study, mostly repeats; a detail may differ. ± gives the spread as reported.
BACE1: Beta-secretase 1 (BACE1, Homo sapiens, UniProt P56817)
Sequence of UniProt P56817 (whole entry, looked up): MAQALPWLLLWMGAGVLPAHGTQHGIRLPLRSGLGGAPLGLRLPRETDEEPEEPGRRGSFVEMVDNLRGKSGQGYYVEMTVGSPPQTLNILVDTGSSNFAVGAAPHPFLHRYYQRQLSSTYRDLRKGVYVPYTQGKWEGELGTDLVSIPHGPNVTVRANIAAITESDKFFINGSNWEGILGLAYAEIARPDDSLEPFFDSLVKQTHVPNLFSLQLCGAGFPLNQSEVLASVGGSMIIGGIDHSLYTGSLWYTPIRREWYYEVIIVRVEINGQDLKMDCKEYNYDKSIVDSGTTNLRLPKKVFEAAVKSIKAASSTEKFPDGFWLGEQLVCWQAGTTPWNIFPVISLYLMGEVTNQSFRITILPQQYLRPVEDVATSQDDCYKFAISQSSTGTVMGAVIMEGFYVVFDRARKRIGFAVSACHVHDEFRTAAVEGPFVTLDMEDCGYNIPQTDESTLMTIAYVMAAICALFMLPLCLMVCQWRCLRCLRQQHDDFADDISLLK
EGLN1: Egl nine homolog 1 (EGLN1, Homo sapiens, UniProt Q9GZT9)
Sequence of UniProt Q9GZT9 (whole entry, looked up): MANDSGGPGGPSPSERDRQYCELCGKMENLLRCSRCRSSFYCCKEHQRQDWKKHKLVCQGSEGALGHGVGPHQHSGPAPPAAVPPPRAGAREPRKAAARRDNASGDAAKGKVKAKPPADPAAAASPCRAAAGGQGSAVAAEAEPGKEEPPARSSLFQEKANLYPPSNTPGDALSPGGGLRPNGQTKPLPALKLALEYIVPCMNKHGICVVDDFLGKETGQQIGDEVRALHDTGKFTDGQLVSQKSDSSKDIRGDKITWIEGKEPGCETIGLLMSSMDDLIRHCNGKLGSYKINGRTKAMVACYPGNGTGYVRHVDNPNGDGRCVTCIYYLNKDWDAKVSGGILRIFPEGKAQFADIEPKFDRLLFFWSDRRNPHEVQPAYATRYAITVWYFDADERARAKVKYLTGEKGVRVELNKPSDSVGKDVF
Grik2: Glutamate receptor ionotropic, kainate 2 (Grik2, Rattus norvegicus, UniProt P42260)
HDAC1: Histone deacetylase 1 (HDAC1, Homo sapiens, UniProt Q13547)
Sequence of UniProt Q13547 (whole entry, looked up): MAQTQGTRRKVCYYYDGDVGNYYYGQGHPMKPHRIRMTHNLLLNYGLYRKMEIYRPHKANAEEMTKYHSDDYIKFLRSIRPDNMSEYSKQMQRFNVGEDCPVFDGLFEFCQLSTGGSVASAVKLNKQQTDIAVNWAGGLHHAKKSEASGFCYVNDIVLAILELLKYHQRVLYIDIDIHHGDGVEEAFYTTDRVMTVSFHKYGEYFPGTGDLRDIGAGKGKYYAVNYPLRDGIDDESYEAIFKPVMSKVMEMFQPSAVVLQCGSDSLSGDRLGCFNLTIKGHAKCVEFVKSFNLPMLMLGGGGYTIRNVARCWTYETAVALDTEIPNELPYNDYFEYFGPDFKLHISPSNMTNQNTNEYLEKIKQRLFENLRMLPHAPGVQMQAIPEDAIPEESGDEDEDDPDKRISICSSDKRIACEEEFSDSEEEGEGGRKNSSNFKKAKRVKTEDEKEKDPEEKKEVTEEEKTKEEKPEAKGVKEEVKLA
Kir3.1/Kir3.2: Kir3.1/Kir3.2 (Homo sapiens, UniProt P48051+P48549)
Sequence of UniProt P48051 (whole entry, looked up): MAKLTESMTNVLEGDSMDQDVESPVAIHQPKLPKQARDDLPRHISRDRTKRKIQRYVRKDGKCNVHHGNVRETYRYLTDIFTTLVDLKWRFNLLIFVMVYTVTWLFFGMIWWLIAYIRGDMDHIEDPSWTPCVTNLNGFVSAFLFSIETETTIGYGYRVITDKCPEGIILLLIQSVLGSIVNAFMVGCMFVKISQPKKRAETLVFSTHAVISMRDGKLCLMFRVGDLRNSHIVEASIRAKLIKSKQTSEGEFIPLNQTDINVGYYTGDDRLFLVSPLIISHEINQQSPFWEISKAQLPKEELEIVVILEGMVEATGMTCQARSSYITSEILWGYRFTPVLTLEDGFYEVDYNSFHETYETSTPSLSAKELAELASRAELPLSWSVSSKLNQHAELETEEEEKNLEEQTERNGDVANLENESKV
Sequence of UniProt P48549 (whole entry, looked up): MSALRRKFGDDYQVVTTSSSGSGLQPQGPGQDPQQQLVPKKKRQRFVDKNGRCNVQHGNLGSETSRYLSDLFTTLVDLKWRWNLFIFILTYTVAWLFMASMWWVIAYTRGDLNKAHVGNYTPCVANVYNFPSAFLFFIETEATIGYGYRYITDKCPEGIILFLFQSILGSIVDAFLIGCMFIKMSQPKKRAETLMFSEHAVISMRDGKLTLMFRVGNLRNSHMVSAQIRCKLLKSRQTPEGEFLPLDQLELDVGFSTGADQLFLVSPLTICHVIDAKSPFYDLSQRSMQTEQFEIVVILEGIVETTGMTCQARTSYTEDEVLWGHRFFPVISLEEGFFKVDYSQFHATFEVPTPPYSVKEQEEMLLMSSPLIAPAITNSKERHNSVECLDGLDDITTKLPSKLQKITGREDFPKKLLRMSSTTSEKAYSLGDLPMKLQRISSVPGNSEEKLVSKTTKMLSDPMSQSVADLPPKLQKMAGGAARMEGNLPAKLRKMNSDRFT
Ephx2: Bifunctional epoxide hydrolase 2 (Ephx2, Mus musculus, UniProt P34914)
Sequence of UniProt P34914 (whole entry, looked up): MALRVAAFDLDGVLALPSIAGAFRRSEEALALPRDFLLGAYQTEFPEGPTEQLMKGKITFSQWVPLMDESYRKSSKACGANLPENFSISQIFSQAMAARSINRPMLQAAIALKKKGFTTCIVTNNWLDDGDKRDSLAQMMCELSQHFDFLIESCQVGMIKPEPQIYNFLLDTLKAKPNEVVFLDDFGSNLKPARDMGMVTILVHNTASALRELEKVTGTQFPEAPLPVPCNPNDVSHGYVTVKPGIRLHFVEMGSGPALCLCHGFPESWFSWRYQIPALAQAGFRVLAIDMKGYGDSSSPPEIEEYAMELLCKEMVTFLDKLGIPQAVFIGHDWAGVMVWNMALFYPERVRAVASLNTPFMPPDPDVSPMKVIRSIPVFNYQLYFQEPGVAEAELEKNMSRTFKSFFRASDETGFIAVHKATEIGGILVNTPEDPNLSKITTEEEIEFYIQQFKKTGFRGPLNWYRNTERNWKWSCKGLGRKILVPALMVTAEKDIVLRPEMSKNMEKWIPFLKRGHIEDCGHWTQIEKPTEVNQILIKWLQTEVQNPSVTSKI
Sequence of UniProt Q9BV23 (whole entry, looked up): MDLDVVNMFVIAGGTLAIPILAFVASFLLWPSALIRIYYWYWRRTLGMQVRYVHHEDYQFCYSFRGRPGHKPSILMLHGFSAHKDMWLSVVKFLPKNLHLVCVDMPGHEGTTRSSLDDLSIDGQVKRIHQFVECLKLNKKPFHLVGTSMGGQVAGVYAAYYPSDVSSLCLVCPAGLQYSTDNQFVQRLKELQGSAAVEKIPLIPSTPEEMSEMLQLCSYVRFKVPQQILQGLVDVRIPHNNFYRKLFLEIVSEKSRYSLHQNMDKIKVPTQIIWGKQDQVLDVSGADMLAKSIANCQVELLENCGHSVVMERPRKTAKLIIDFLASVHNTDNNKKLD
Sequence of UniProt P20618 (whole entry, looked up): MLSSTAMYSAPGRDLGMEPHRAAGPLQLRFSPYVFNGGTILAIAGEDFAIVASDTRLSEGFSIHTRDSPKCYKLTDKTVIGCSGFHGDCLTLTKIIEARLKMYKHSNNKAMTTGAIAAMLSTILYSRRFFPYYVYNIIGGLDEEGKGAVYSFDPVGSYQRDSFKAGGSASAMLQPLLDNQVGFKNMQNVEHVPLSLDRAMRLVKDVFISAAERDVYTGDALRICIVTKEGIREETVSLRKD

Substance	target	test	system	conditions	scale	IC50
Cc1ccc(Cl)c(Nc2ccccc2C(=O)O)c1Cl	FTO (Homo sapiens, UniProt Q9C0B1)	enzyme activity, inhibitor, fluorescence		pH 6		12.5 µM
S=c1[nH]nc(-c2ccc(-c3cccc(Cl)c3)o2)s1	Runt-related transcription factor 1, Runt domain; with CBFβ (Homo sapiens, UniProt Q01196)	Runt domain-CBFβ binding, inhibitor, FRET		with: Cerulean-Runt and Venus-CBFβ 100 nM		2 ± 1.1 µM
OC1CC2CCC(C1)N2CCCN1c2ccccc2Sc2ccc(Cl)cc21 (stereo not drawn)	BACE1	inhibitor, FRET		pH 4.5		127 ± 38 µM
NCCCCCO[C@H]1O[C@H](COS(=O)(=O)O)[C@@H](O[C@@H]2O[C@H](C(=O)O)[C@@H](O[C@H]3O[C@H](COS(=O)(=O)O)[C@@H](O[C@@H]4O[C@@H](C(=O)O)[C@@H](O)[C@H](O)[C@H]4O)[C@H](O)[C@H]3NS(=O)(=O)O)[C@H](O)[C@H]2O)[C@H](O)[C@H]1NS(=O)(=O)O	BACE1	enzyme activity, inhibitor, FRET		pH 4.5		236 µM
Nc1nnc(-c2cccc(Cl)c2Cl)c(N)n1	SCN5A (Homo sapiens, UniProt Q14524)	late sodium current, inhibitor		ramp protocol	baseline: ranolazine 300 µM	12.2 ± 0.5 µM
NCCC(Oc1ccc(C(F)(F)F)cc1)c1ccccc1 (stereo not drawn)	Slc6a4 (Mus musculus, UniProt Q60857, I172M)	[3H]5-HT uptake	brain synaptosomes	10 min, pH 7.4, 37 °C, with: [3H]5-HT 100 nM		0.5 µM
NS(=O)(=O)c1ccc(N2N=C(C(F)(F)F)C[C@@H]2c2ccc(F)cc2F)cc1	Cyclooxygenase-2 (Canis lupus familiaris, UniProt Q8SPQ9)	PGE2 formation, inhibitor	dog whole blood	24 h, 37 °C, with: LPS		> 30 µM
O=C(O)CCCC(=O)NNC(=O)c1ccc2ccccc2n1	EGLN1	inhibitor, AlphaScreen		bimodal curve, rough estimate, with: 2 µM 2-oxoglutarate		> 300 µM
O=C(O)c1cc(=O)c(O)co1	EGLN1	ODDD peptide hydroxylation, inhibitor, MALDI-TOF MS		pH 7.00, 37.0 °C, with: 2-oxoglutarate 10 µM		30 µM
C[C@@H](CC(=O)NCc1cccc2ccccc12)NC(=O)[C@H](CC(=O)NC(C)(C)C)NC(=O)CCc1ccccc1	Proteasome component C5/PSMB8 (Homo sapiens, UniProt P20618+P28062)	chymotrypsin-like activity, inhibitor		with: ac-ANW-AMC		0.057 ± 0.012 µM
O=c1cc(N2CCOCC2)oc2c(OCc3ccccc3)cccc12	PIK3CA (Homo sapiens, UniProt P42336)	enzyme activity, inhibitor				0.77 µM
CC(=O)NCC(=O)N1[C@@H]2CC[C@H]1c1ccc(Nc3ncc(C(F)(F)F)c(NC4CCC4)n3)cc12	STK24 (Homo sapiens, UniProt Q9Y6E0)	enzyme activity, inhibitor, radiometric				0.023 µM
O=C(O)c1ccccc1-n1c(/C=C/c2ccc([N+](=O)[O-])cc2)nc2ccccc2c1=O	Grik2	ion current, inhibitor, two-electrode voltage clamp	Xenopus oocytes	concanavalin A pretreatment, with: 100 µM glutamate		> 300 µM
CCCCCCCCC1CCC(=O)O1 (stereo not drawn)	Liver carboxylesterase (Sus scrofa, UniProt Q29550)	enzyme activity, inhibitor		with preincubation		96 µM
Cc1nc2ccc(F)cc2n1Cc1ccc(C(=O)NO)cc1	HDAC1	enzyme activity, inhibitor				2.92 ± 0.01 µM
COc1ccc(OCC(O)Cn2c(=N)n(Cc3ccccc3)c3ccccc32)cc1 (stereo not drawn)	Kir3.1/Kir3.2	ion flux				1.5 µM
O=C(CCc1ccc(O)c(O)c1)NCCCCNCCCNC(=O)CCc1ccc(O)c(O)c1	CHRM1 (Homo sapiens, UniProt P11229)	calcium signal, antagonist, fluorescence				2.9 µM
CCN(c1ccc(OC)cc1)S(=O)(=O)C1CC2OC1C(c1ccc(O)cc1)=C2c1ccc(O)cc1 (stereo not drawn)	ESR2 (Homo sapiens, UniProt Q92731)	reporter gene, antagonist, luciferase				0.37 µM
O=c1[nH]c2ccccc2n1C1CCN(CCCC(c2ccc(F)cc2)c2ccc(F)cc2)CC1	USP8 (Homo sapiens, UniProt P40818)					> 114 µM
COC(=O)C1=C(C)NC(C)=C(C(=O)OCCN(C)Cc2ccccc2)C1c1cccc([N+](=O)[O-])c1 (stereo not drawn)	ABCC1 (Homo sapiens, UniProt P33527)	efflux, inhibitor	SupT1-Vin overexpressing ABCC1	with: BODIPY FL verapamil 100 nM		2.6 ± 1.1 µM
O=C(Nc1cc(Cl)c(F)c(Cl)c1)c1cc(S(=O)(=O)N2CCOCC2)c(Cl)cc1Cl	LPAR5 (Homo sapiens, UniProt Q9H1C0)	Ca2+ mobilization, antagonist	B103	with: LPA at EC50		> 100 µM
Cc1cccc(-c2ccc(Cn3cccc(O)c3=S)cc2)c1	HDAC1	enzyme activity, inhibitor, SAMDI mass spectrometry				> 10 µM
Cc1ncc([N+](=O)[O-])n1CC(C)O (stereo not drawn)	Cytochrome P450 2A6 (CYP2A6, Homo sapiens, UniProt P11509)	enzyme activity, inhibitor	human liver microsomes	30 min, with: coumarin		> 500 µM
NCCCCCCCCCCCCN	Grin1/Grin2a/Grin2b, channel binding site (Rattus norvegicus, UniProt P35439+Q00959+Q00960)			pH 7		7.05 ± 2.38 µM
COc1ccc(N2CC3=C(C2=O)C(c2ccccc2O)NC(=O)N3)cc1 (stereo not drawn)	ALPI (Bos taurus, UniProt P19111)	enzyme activity, inhibitor, absorbance		pH 9.5		4.88 µM
O=C(Nc1nnc(SCc2cn(Cc3cc(=O)c(O)co3)nn2)s1)c1ccc(Br)cc1	PPO3 (Agaricus bisporus, UniProt C7FF04)	inhibitor				6.7 ± 24 µM

Substance	target	test	system	conditions	scale	IC50
COC(=O)C(Cc1ccc(CCCC(=O)NCCC(=O)Nc2ccc3nc(C)sc3c2)cc1)C(=O)OC	LDHA (Homo sapiens, UniProt P00338)	enzyme activity, inhibitor, fluorescence				> 200 µM
O=C(Nc1ccc(C(=O)Nc2ccc(C(=O)Nc3ccc(S(=O)(=O)O)c4cc(S(=O)(=O)O)cc(S(=O)(=O)O)c34)cc2)cc1)Nc1ccc(C(=O)Nc2ccc(C(=O)Nc3ccc(S(=O)(=O)O)c4cc(S(=O)(=O)O)cc(S(=O)(=O)O)c34)cc2)cc1	SETD7 (Homo sapiens, UniProt Q8WTS6)	enzyme activity, inhibitor				1.9 µM
Cc1ccccc1-c1ccc(Cn2cccc(O)c2=S)cc1	HDAC1	enzyme activity, inhibitor, SAMDI mass spectrometry				> 10 µM
COc1ccccc1-n1c(/C=C/c2cccc([N+](=O)[O-])c2)nc2ccccc2c1=O	Grik2	ion current, inhibitor, two-electrode voltage clamp	Xenopus oocytes	concanavalin A pretreatment, with: 100 µM glutamate		> 300 µM
NCCOB(c1ccccc1)c1ccccc1	TRPM7 (Homo sapiens, UniProt Q96QT4)	ion current, inhibitor, whole-cell patch clamp		Mg2+-free internal solution		32.1 ± 0.1 µM
O=C(OC(C(F)(F)F)C(F)(F)F)N1CCc2ccccc2C1	ABHD6 (Homo sapiens, UniProt Q9BV23)	enzyme activity, inhibitor, fluorescence				0.084 µM and 0.0842 µM
C[C@]12C[C@@H]3C[C@](C)(C1)C[C@@](Nc1c(Nc4ccc(CN5CCC[C@H](C(=O)NCCCCCC(=O)NO)C5)cc4F)c(=O)c1=O)(C3)C2	Ephx2	enzyme activity, inhibitor, fluorescence				1.23 µM
CSc1nnc2[nH]nc(C)c2n1	deoD (Escherichia coli, UniProt P0ABP8)	phosphorolysis, inhibitor		pH 7.0, 25 °C, with: 7-methylguanosine 32 µM, phosphate 50 mM		~40 µM
Cc1ccc(OCC(O)Cn2c(=N)n(C)c3ccccc32)cc1 (stereo not drawn)	Kir3.1/Kir3.2	ion flux				12.3 µM
micropeptin 996	Neutrophil elastase (ELANE, Homo sapiens, UniProt P08246)	inhibitor				0.84 ± 0.12 µM
COC(=O)CC[C@@H](C)[C@H]1CC[C@H]2[C@@H]3CC[C@@H]4C[C@H](NC(=O)CCCCCC(=O)O)CC[C@]4(C)[C@H]3CC[C@]12C	human 20S proteasome	chymotrypsin-like activity, inhibitor		with: PA28		> 10 µM
N#Cc1c(C(F)(F)F)cc(-c2ccc(Cl)cc2)nc1SCC(=O)Nc1ncccn1	TAAR1 (Homo sapiens, UniProt Q96RJ0)					0.0084 µM
O=C(O)c1ccccn1	mushroom tyrosinase	monophenolase activity, inhibitor		pH 6.8, 20 °C, with: p-coumaric acid substrate		3540 µM
N=c1n(Cc2ccccc2)c2ccccc2n1CC(O)COc1ccccc1Cl (stereo not drawn)	Kir3.1/Kir3.2	ion flux				2.77 µM
O=C1O[C@H]([C@@H](O)CO)C(O)=C1OP(=O)(O)O	mushroom tyrosinase	inhibitor		with: L-DOPA		79 ± 5.86 µM
CC(C)C[C@H](NC(=O)[C@H](CC(C)C)NC(=O)[C@@H](Cc1c[nH]c2ccccc12)NC(=O)[C@H](Cc1ccccc1)NC(=O)[C@@H](Cc1c[nH]c2ccccc12)NC(=O)[C@H](CCC(N)=O)NC(=O)[C@H](CCC(N)=O)NC(=O)[C@@H]1CCCN1C(=O)[C@H](CCCCN)NC(=O)[C@@H]1CCCN1C(=O)[C@H](N)CCCN=C(N)N)C(N)=O	NMBR (Homo sapiens, UniProt P28336)	binding, radioligand displacement	Balb 3T3 or NCI-H1299			4.5 to 10 µM
O=C(NNC(=O)c1ccc(CNS(=O)(=O)c2ccc(F)c(Cl)c2)cc1)c1ccccc1	Glutamate NMDA receptor; Grin1/Grin2a (Grin1/Grin2a, Rattus norvegicus, UniProt P35439+Q00959, P527A)	ion current, two-electrode voltage clamp		oocytes		0.48 µM
C[C@H](CO)N1C[C@H](C)[C@H](CN(C)Cc2ccc(C(=O)Nc3ccccc3N)cc2)Oc2ccc(N(C)C)cc2CC1=O	HDAC1	enzyme activity, inhibitor		with preincubation		0.069 µM
Cc1cccc(OCC(O)Cn2c(=N)n(Cc3ccccc3)c3ccccc32)c1 (stereo not drawn)	Kir3.1/Kir3.2	ion flux				4.95 µM
Tannic acid	mRNA triphosphatase Cet1 (Trypanosoma brucei brucei, UniProt Q582T2)	enzyme activity, inhibitor, Transcreener ADP FP		3 h, with: 50 µM ATP		0.06 µM
Cc1ncc(C(=O)Nc2ccc(CN3CCN(C)CC3)c(C(F)(F)F)c2)cc1C#Cc1cnc(N)c2ncccc12	Breakpoint cluster region protein/Tyrosine-protein kinase ABL1 (Homo sapiens, UniProt P00519+P11274, T315I)					0.019 µM
Cc1cc(C(=O)N2CCC[C@H](C(=O)NCCCCCCC(=O)NO)C2)ccc1NC(=O)N[C@@]12C[C@@H]3C[C@@](C)(C[C@@](C)(C3)C1)C2	Ephx2	enzyme activity, inhibitor, fluorescence				0.001 µM
CC(C)C[C@H](NC(=O)[C@H](Cc1ccccc1)NC(=O)c1cnccn1)B(O)O	Proteasome subunits (Trypanosoma cruzi, UniProt Q4CU77+Q4D8U7)	trypsin-like activity, inhibitor		wild-type proteasome		1.7 ± 0.088 µM
C[C@]12CC3CC(Nc4c(Nc5ccc(CN6CCC[C@H](C(=O)NCCCC(=O)NO)C6)cc5)c(=O)c4=O)(C1)C[C@@](C)(C3)C2	Ephx2	enzyme activity, inhibitor, fluorescence				2.3 µM
Cc1cc(OCc2nc(N)nc(N)c2-c2ccc(Cl)c(Cl)c2)ccc1[N+](=O)[O-]	BACE1	inhibitor, FRET		pH 4.5		829 ± 346 µM

Repeated from above:
Substance	target	test	system	conditions	scale	IC50
Cc1cccc(-c2ccc(Cn3cccc(O)c3=S)cc2)c1	HDAC1	enzyme activity, inhibitor, SAMDI mass spectrometry				> 10 µM
Cc1ncc([N+](=O)[O-])n1CC(C)O (stereo not drawn)	Cytochrome P450 2A6 (CYP2A6, Homo sapiens, UniProt P11509)	enzyme activity, inhibitor	human liver microsomes	30 min, with: coumarin		> 500 µM
NCCCCCCCCCCCCN	Grin1/Grin2a/Grin2b, channel binding site (Rattus norvegicus, UniProt P35439+Q00959+Q00960)			pH 7		7.05 ± 2.38 µM
